{"data": "Measured values from different studies", "target": "Alpha-2A adrenergic receptor (ADRA2A, Homo sapiens, UniProt P08913)", "note": "Protocols differ between the studies behind these lines.", "chain of UniProt P08913 (whole entry, looked up)": "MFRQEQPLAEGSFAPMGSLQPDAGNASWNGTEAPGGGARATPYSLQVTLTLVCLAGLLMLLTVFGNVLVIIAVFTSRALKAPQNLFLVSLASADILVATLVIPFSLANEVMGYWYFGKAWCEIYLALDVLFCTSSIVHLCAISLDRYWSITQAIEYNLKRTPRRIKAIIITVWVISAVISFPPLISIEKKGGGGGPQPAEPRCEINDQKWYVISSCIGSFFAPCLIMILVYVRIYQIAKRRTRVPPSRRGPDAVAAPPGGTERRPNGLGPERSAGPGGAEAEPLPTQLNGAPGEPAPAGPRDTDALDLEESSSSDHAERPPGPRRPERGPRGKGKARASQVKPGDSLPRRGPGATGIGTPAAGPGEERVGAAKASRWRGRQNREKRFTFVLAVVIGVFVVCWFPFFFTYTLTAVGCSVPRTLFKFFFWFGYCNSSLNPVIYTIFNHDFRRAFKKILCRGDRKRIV"}
{"Compound": "CN1CCC(CNc2ccc3ncc(-c4cccc(OC(F)(F)F)c4)n3n2)CC1", "test": "cAMP, antagonist, cell-based GPCR", "setting": "10 µM", "how to read": "relative to: control", "measurement": "response", "value": "> 50%"}
{"Compound": "CCn1ccnc1CC1COc2ccccc2O1 (stereo not drawn)", "test": "TGFα shedding", "setting": "concentration not given", "measurement": "inhibition", "value": "inhibited"}
{"Compound": "CCS(=O)(=O)c1nc(S(=O)(=O)c2ccccc2Cl)c(N2CCN(C)C(=O)[C@H]2C)s1", "setting": "10 µM", "measurement": "inhibition", "value": "1.85%"}
{"Compound": "CN(C(=O)n1cnc(-c2ccc[n+]([O-])c2)c1)C1CCCCC1", "setting": "10 µM", "measurement": "inhibition", "value": "2.09%"}
{"Compound": "CCN1/C(=C/C(C)=O)Sc2ccc(F)cc21", "setting": "10 µM", "measurement": "inhibition", "value": "37.8%"}
{"Compound": "COC(=O)[C@@H]1[C@H]2C[C@H]3c4[nH]c5ccccc5c4CCN3C[C@@H]2CC[C@@H]1O", "test": "binding, antagonist, radioligand binding", "measurement": "Hill coefficient", "value": 0.9}
{"Compound": "NC(=O)c1nnn(Cc2cc(Cl)c(C(=O)c3ccc(Cl)cc3)c(Cl)c2)c1N", "test": "cAMP, antagonist, cell-based GPCR", "setting": "10 µM", "how to read": "relative to: control", "measurement": "response", "value": "> 50%"}
{"Compound": "OCCCN1CC[C@@H]2C[C@H]1c1cc(-c3ccc(C(F)(F)F)cc3)ccc12", "test": "radioligand binding, PDSP competition binding", "setting": "10 µM", "measurement": "inhibition", "value": "< 50%"}
{"Compound": "O=C(NO)c1ccc(CN2CCCCc3ccccc32)c(F)c1", "test": "radioligand binding, radioligand displacement", "setting": "10 µM, mean of replicates", "measurement": "inhibition", "value": "15.9%"}
